Measurements collected from several papers.
± marks the error that the study gave. In brackets after ≈: the same amount, converted by molar mass.

Substance | test | system | setting | scale | endpoint | value
CCCC[C@H](NC(C)=O)C(=O)N[C@H]1CCC(=O)NC[C@@H](C(=O)N[C@@H](Cc2c[nH]c3ccccc23)C(N)=O)NC(=O)[C@H](CCCNC(=N)N)NC(=O)[C@@H](Cc2ccccc2)NC(=O)[C@H](Cc2c[nH]cn2)NC1=O | – | healthy human, both sexes, plasma | subcutaneous, 1.0 mg once daily, day 1, median | – | Vd/F | 106 L
Cc1nc(-c2ccc(OCC(C)C)c(C#N)c2)sc1C(=O)O | – | pediatric patients, plasma | oral, 40 mg once daily, fed, PopPK post hoc, weight at least 40 kg | – | Vz/F at steady state | 79.3 ± 22.8 L
O=C(O)c1cc(/N=N/c2ccc(S(=O)(=O)Nc3ccccn3)cc2)ccc1O | shake-flask | PEG400 | 37 °C | – | thermodynamic solubility | 11.8 ± 0.58 mg/g
[2H]C([2H])([2H])Oc1cc2c(cc1OC([2H])([2H])[2H])C1CC(=O)C(CC(C)C)CN1CC2 (stereo not shown) | measured: deuterated α-HTBZ | healthy human volunteers, plasma | oral, 6 mg single dose, standard meal | – | dose-normalized Cmax | 1.6 ng/mL
COc1ccc(/C=C\c2cc(OC)c(OC)c(OC)c2)cc1OP(=O)(O)O | – | Sprague-Dawley rat, plasma | intravenous, 28 mg/kg | – | AUC(0-τ) | 12.5 ± 1.54 µg·h/mL
COc1cc(N)c(Cl)cc1C(=O)NC1CCN(CCCOc2ccc(F)cc2)CC1OC (stereo not shown) | – | male Hartley guinea pig, anaesthetized | intravenous infusion, 0.1 mg/kg, 10 min infusion | relative to: baseline | QTc change | 8.5 ± 3.6%
CNC(=O)c1c(C)oc2cc(Oc3ncnc4cc(OC)c(OC)cc34)ccc12 | – | human, moderate hepatic impairment, plasma | oral, 2 mg, dose-corrected interim analysis | relative to: historical normal hepatic function | relative systemic exposure | ≤ 2 fold
CC(C)/N=c1\cc2n(-c3ccc(Cl)cc3)c3ccccc3nc-2cc1Nc1ccc(Cl)cc1 | shake-flask | soybean oil | 37 °C | – | thermodynamic solubility | 9.51 ± 0.21 mg/g
CC(=O)O[C@@]12CO[C@@H]1C[C@H](O)[C@@]1(C)C(=O)[C@H](O)C3=C(C)[C@@H](OC(=O)[C@H](O)[C@@H](NC(=O)OC(C)(C)C)c4ccccc4)C[C@@](O)([C@@H](OC(=O)c4ccccc4)[C@H]21)C3(C)C | HPLC-MS/MS | rat plasma | storage and freeze-thaw | – | stability | stable
COc1cc2c3c(n(CCCN4CCOCC4)c(=O)c2cc1OC)-c1cc2c(cc1C3=O)OCO2 | – | human cancer patients | intravenous, 40 mg/m2/day, 0 to 24 h, day 5 | relative to: dose | urinary excretion | 0.16%
CC(C)CCCCC(=O)N[C@@H](CCN)C(=O)N[C@H](C(=O)N[C@@H](CCN)C(=O)N[C@H]1CCNC(=O)[C@H]([C@@H](C)O)NC(=O)[C@H](CCN)NC(=O)[C@H](CCN)NC(=O)[C@H](CC(C)C)NC(=O)[C@@H](Cc2ccccc2)NC(=O)[C@H](CCN)NC1=O)[C@@H](C)O | UPLC-MS/MS | intensive care patients Overall, plasma | iv, dose not given, 6 h post-dose, steady state, polymyxin B dosing | – | mid-interval concentration | 600 ± 200 ng/mL
CC(C)(C)NC(=O)[C@@H]1C[C@@H]2CCCC[C@@H]2CN1C[C@@H](O)[C@H](Cc1ccccc1)NC(=O)[C@H](CC(N)=O)NC(=O)c1ccc2ccccc2n1 | shake-flask | polysorbate 80 | 37 °C | – | thermodynamic solubility | 48.9 ± 2.15 mg/g
CCCSc1ccc2nc(NC(=O)OC)[nH]c2c1 | – | sodium acetate buffer | 24 h, pH 4.0, room temperature | – | thermodynamic solubility | 0.00091 ± 0.0001 mg/mL (≈ 3.43 µM)
CC1(C)Oc2cc3oc(=O)ccc3cc2C[C@@H]1O | – | CD-1 mouse, male, kidney | oral gavage, 80 mg/kg daily, 4 weeks | – | organ weight | 0.67 ± 0.1 g
des-acyl ghrelin (human) | – | wild-type mice, olfactory bulb | intravenous, dose not given, 10 min, vascular space corrected | – | tissue/serum ratio | 16.1 µL/g
Nc1nc(NC2CC2)c2ncn([C@H]3C=C[C@@H](CO)C3)c2n1 | equilibrium dialysis | cellulose membrane, cell-free | pH 7.4, added: 0.5% w/w Pluronic P85 | – | effective permeability | 1150 ± 260 nm/s
O=c1cc(-c2ccc(O)cc2)oc2cc(O)cc(O)c12 | mass spectrometry | Caco-2 | 40 µM, 6 h | – | Papp A→B | 16.4 nm/s
CCCC[C@@H]1NC(=O)[C@@H](NC(=O)[C@H](CCC(=O)O)NC(=O)CNC(=O)CN2CCN(CC(=O)O)CCN(CC(=O)O)CCN(CC(=O)O)CC2)CCCCNC(=O)C[C@@H](C(N)=O)NC(=O)[C@H](C(C)C)NC(=O)[C@@H]2CCCN2C(=O)[C@H](CCCNC(=N)N)NC(=O)CNC(=O)[C@H](Cc2c[nH]c3ccccc23)NC(=O)[C@H](CCCNC(=N)N)NC(=O)[C@@H](Cc2ccccc2)NC(=O)[C@H](Cc2c[nH]cn2)NC(=O)[C@H](CCC(=O)O)NC1=O [indium-111 labelled] | – | normal C57 mice, pancreas | intravenous, 0.037 MBq, 24 h | – | tissue uptake | 0.06 ± 0.01 %ID/g
CC[C@H](C)[C@@H]1NC(=O)[C@H](Cc2ccc(O)cc2)NC(=O)[C@@H](N)CSSC[C@@H](C(=O)N2CCC[C@H]2C(=O)N[C@@H](CC(C)C)C(=O)NCC(N)=O)NC(=O)[C@H](CC(N)=O)NC(=O)[C@H](CCC(N)=O)NC1=O | microdialysis, radioimmunoassay | C57BL/6J male mice, wild type, amygdala extracellular fluid | intranasal, 12 µg, 2 h after dosing, i=1,2,6,30 | – | Cmax | 5.74 ± 1.38 pg/sample

Substance | test | system | setting | scale | endpoint | value
O=C(C1CCCCC1)N1CC(=O)N2CCc3ccccc3C2C1 (stereo not shown) | shake-flask | polysorbate 80 | 37 °C | – | thermodynamic solubility | 19.2 ± 1.2 mg/g
C[C@]12CC[C@@H]3c4ccc(O)cc4CC[C@H]3[C@@H]1C[C@@H](O)[C@@H]2O | GC-MS | breast cancer women on NSAI, serum | vaginal, 0.03 mg, 0.5 h, day 0 | – | mean serum concentration | 0.00383 ng/mL
O=C(O)[C@H](c1ccccc1Cl)N1CCc2sccc2C1 | HPLC-MS/MS | feline citrate plasma | 24 h, -20 °C, storage stability | – | deviation from nominal | 10%
CCCC(C)N1CCC(N(Cc2ccccc2)C(=O)Nc2ccc(I)cc2)CC1 (stereo not shown) | – | CD-1 female mouse, liver microsomes | 0.8 µM | – | intrinsic clearance | 7.2 L/h/kg
CCCCC[C@H](O)CC(=O)CCc1ccc(O)c(OC)c1 | – | Sprague Dawley rat, male, small intestine site 4 contents | oral, 0.3 g/kg TU-100, 2 h, no β-glucuronidase treatment | relative to: ingested amount | recovery | 2.01%
C[C@@H]1CCC[C@H](n2cnc(-c3cc(Cl)ccc3-n3cc(Cl)nn3)cc2=O)c2cc(ccn2)-c2c(cnn2C(F)F)NC1=O | – | human, plasma | oral, 20 mg, single dose, fasted, healthy volunteers | – | Tmax | 3 h
N[C@@H](CC(=O)N1CCn2c(nnc2C(F)(F)F)C1)Cc1cc(F)c(F)cc1F | – | adult UCB transplant recipients, plasma | oral, 600 mg four times, observed median | – | log AUC(0-48h) | 9.73 ng·h/mL
CCCCC1(CCCC)CN(c2ccccc2)c2cc(SC)c(OCC(=O)N[C@@H](C(=O)NCC(=O)O)c3ccccc3)cc2S(=O)(=O)C1 | – | human, plasma | oral, 5 mg once daily, day 1, geometric mean | – | AUC(0-t) | 0.000559 µg·h/mL
Cc1cc(NC(=O)c2cc(C(F)(F)F)cc(C(F)(F)F)c2)ccc1NS(=O)(=O)C(F)(F)F | slow-stir method | 1-octanol/water | 48 h, room temperature | – | log P | 2.9 ± 0.199
Cn1c(-c2ccc(C(N)=O)cc2F)nnc1C(C)(C)Oc1c(F)cc(Cl)cc1F | – | healthy young Japanese subjects, plasma | oral, 20 mg once daily, day 18, 14 days dosing | – | Tmax median | 1.5 h
O=C1N=C(N2CCOCC2)CN1c1ccc(Cl)cc1 | – | beagle dog, both sexes, plasma | oral, 30 mg/kg, day 0, tablets, single dose | – | apparent oral clearance | 0.285 L/h/kg
C#C[C@]1(O)CC[C@H]2[C@@H]3CCc4cc(O)ccc4[C@H]3CC[C@@]21C | shake-flask | PEG400 | 37 °C | – | thermodynamic solubility | ≥ 163 mg/g
CCc1cn([C@@H]2O[C@H](CO)[C@@H](O)[C@H]2O)c2ncnc(C)c12 | metabolic stability | mouse, liver microsomes | 0 h | – | compound remaining | 100%
C[C@H](Nc1ccc(C#N)n(C)c1=O)c1cc2cc(Cl)ccc2[nH]c1=O | – | patients | oral, 150 mg twice daily | – | QTc interval increase | 6.2 ms
C[C@](N)(Cc1ccc(O)c(O)c1)C(=O)O | static gravimetric method | supercritical CO2, 606.8 kg/m3 | 5 h, 333 K, pressure 15 MPa | – | solubility | 0.0826 mg/mL (≈ 391 µM)
CCCOc1ccc([C@H]2CNC(=O)N2c2ccc3[nH]cnc3c2)cc1 | – | non-elderly adults, fasted, plasma | oral, 20 mg twice daily, day 11, 2 to 12 h postdose, oral solution, geometric mean | – | effective half-life | 2.46 h
CC(C)[C@H](NC(=O)[C@@H]1CCCN1C(=O)[C@H](CCCNC(=N)N)NC(=O)[C@H](CS)NC(=O)[C@H](Cc1c[nH]c2ccccc12)NC(=O)[C@H](CCCNC(=N)N)NC(=O)[C@@H](Cc1ccccc1)NC(=O)[C@H](Cc1c[nH]cn1)NC(=O)[C@H](CCC(=O)O)NC(=O)[C@H](CS)NC(=O)[C@H](CS)NC(=O)[C@H](CCCCN)NC(=O)[C@@H]1CC(=O)N[C@@H](CCCNC(=N)N)C(=O)N[C@@H](C(C)C)C(=O)N[C@@H](CC(=O)O)C(=O)N[C@H](Cc2ccc(O)cc2)C(=O)N1)C(N)=O [technetium-99m labelled] | – | C57 mouse, female, B16/F1 melanoma, skin | intravenous, 2 h, added: NDP-MSH 10 µg co-injected | – | tissue uptake | 0.65 ± 0.1 %ID/g
Cc1nc2cccc(OCC(C)(C)C(=O)NC(C)C)c2c(N)c1C(=O)O | – | Sprague-Dawley rat, male, plasma | oral gavage, 10 mg/kg, day 1 | – | Cmax | 12.9 ± 3.2 ng/mL
